Measurements from different studies.
Every numbered part comes from another study and shows a few of its results, in no order. Several values in a cell are separate wells, animals, samples, runs or records.
Sequence of UniProt P48729 (whole entry, looked up): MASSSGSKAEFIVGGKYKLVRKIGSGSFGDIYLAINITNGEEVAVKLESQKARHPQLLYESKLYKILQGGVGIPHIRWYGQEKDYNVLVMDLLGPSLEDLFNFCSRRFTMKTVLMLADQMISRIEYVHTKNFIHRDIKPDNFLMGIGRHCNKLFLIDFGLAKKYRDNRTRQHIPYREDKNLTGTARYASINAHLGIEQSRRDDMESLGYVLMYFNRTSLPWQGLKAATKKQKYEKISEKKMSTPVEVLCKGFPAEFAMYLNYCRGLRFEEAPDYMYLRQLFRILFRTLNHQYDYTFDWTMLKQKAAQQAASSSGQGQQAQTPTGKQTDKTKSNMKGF
Sequence of UniProt Q9UJQ4 (whole entry, looked up): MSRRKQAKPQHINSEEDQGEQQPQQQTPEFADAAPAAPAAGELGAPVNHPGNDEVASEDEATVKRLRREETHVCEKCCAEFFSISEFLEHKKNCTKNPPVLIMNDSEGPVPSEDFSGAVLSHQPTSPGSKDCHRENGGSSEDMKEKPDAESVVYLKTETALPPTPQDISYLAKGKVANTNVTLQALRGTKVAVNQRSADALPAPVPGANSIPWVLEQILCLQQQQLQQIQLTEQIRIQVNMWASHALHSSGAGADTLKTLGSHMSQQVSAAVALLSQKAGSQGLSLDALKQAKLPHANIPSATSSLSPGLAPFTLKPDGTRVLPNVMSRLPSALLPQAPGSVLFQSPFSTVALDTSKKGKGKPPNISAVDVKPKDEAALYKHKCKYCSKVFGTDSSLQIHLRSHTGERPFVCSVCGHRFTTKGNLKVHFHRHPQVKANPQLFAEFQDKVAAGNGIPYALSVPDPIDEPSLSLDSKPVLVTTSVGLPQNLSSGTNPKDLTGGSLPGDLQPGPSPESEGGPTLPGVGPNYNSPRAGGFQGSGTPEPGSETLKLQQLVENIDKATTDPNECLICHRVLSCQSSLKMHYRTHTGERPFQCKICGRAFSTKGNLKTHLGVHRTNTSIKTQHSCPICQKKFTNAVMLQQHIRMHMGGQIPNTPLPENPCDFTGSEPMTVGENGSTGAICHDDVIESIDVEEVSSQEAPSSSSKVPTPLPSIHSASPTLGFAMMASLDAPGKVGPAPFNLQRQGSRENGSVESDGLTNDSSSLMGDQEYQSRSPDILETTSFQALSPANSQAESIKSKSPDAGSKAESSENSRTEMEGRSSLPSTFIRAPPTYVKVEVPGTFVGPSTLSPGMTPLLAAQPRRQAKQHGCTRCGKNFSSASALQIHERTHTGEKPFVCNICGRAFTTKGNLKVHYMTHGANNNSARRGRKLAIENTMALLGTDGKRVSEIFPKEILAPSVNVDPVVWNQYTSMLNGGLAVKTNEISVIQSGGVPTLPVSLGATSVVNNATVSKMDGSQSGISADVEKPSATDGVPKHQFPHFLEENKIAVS
Sequence of UniProt Q9NYM4 (whole entry, looked up): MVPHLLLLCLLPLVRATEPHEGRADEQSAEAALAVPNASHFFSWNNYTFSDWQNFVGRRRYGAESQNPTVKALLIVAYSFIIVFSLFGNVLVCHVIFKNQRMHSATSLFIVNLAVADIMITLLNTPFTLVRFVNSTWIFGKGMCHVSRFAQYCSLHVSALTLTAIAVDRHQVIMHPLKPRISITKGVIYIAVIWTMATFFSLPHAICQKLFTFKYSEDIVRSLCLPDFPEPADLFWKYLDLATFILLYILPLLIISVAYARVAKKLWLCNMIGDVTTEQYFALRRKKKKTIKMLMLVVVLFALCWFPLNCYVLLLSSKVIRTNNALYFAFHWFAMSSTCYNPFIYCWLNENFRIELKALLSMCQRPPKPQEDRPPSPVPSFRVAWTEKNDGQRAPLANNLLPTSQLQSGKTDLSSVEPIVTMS
Sequence of UniProt P42336 (whole entry, unmodified, looked up): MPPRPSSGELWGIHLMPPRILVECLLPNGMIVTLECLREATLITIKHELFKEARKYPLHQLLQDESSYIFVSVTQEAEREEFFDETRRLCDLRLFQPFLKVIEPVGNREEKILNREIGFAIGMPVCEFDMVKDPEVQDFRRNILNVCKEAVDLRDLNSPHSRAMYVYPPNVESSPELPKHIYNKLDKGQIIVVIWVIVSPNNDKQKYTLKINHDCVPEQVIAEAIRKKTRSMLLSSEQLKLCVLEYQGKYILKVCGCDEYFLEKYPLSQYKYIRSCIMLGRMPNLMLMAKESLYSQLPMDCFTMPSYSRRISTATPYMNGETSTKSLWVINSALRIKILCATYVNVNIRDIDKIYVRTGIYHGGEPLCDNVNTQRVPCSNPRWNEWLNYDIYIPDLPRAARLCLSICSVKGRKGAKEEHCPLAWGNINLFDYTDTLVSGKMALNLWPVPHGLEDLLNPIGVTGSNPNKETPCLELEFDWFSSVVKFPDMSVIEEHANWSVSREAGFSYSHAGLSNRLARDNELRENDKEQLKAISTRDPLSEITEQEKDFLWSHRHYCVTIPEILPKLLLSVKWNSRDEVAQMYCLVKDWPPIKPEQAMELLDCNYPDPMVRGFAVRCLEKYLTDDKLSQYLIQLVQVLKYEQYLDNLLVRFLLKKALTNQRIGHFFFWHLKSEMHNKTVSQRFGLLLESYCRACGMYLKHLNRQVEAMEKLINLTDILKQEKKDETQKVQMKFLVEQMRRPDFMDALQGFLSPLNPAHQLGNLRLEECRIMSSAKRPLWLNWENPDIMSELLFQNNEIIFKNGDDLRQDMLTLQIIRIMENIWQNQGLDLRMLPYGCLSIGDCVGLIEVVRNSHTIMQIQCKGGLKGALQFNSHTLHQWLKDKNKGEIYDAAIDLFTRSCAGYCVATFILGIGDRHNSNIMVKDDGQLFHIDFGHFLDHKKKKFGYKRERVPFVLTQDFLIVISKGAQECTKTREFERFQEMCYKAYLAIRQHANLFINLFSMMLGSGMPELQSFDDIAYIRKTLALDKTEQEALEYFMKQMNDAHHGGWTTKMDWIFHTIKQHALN

Set 1
Target: Diamine acetyltransferase 1 (Homo sapiens, UniProt P21673)
Mode: inhibitor
Concentration: 10 µM
Reference: control
Target sequence (P21673 1-171): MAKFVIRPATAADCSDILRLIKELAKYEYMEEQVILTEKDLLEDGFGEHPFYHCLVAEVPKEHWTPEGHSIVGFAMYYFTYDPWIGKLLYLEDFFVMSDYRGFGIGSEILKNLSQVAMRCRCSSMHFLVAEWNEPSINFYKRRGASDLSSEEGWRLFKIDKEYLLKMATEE
For `C[C@@H]1[C@H]2[C@H](O[C@@H]3O[C@H](CO)[C@@H](O)[C@H](O)[C@H]3O)OC=C(C(=O)O)[C@H]2C[C@@H]1O`, the remaining activity was 101%.
For `CCCCCCCCCCCCCCCCCC(=O)O`, the remaining activity was 91.3%.
For `CCCCCCCCCCCCCCCCCCCCCCCCCC(=O)O`, the remaining activity was 104%.
`CC/C=C\C/C=C\C/C=C\CCCCCCCC(=O)OC` has a remaining activity of 112%.
`CC1(C)CCCC2(C)OC(=O)C=C12` (stereo not drawn) gave a remaining activity of 102%.

Set 2
Compound: O=C1CCC(N2Cc3cc(C4CCN(Cc5ccccc5)CC4)ccc3C2=O)C(=O)N1 (stereo not drawn)
Mode: degrader
CRBN/Zinc finger protein Helios: CRBN/Zinc finger protein Helios (Homo sapiens, UniProt Q96SW2+Q9UKS7)
Sequence of UniProt Q96SW2 (whole entry, looked up): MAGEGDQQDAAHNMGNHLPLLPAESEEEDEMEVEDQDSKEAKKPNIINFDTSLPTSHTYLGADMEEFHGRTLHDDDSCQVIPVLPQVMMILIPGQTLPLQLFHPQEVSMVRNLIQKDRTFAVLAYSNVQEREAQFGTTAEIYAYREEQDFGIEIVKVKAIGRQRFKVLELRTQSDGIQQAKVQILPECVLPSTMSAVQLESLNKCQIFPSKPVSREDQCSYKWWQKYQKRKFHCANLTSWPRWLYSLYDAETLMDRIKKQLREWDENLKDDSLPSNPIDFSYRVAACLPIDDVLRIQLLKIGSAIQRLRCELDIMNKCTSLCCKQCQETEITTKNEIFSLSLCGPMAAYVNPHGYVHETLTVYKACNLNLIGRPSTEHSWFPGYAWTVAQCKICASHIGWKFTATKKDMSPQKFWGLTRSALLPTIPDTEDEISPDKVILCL
Sequence of UniProt Q9UKS7 (whole entry, looked up): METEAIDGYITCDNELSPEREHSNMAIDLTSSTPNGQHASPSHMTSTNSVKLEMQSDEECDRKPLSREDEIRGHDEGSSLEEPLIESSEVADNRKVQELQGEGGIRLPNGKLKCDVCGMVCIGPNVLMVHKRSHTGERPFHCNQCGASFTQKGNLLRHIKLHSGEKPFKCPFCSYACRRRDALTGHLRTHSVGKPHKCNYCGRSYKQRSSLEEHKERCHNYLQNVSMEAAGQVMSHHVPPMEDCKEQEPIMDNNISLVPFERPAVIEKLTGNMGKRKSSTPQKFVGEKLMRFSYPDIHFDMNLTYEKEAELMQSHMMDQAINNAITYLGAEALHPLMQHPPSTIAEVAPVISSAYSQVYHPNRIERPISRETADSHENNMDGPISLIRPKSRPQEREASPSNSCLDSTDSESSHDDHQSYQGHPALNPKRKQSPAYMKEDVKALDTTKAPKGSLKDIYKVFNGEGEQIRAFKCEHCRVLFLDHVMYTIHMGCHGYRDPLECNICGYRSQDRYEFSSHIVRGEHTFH
GSPT1: Eukaryotic peptide chain release factor GTP-binding subunit ERF3A (GSPT1, Homo sapiens, UniProt P15170)
Sequence of UniProt P15170 (whole entry, looked up): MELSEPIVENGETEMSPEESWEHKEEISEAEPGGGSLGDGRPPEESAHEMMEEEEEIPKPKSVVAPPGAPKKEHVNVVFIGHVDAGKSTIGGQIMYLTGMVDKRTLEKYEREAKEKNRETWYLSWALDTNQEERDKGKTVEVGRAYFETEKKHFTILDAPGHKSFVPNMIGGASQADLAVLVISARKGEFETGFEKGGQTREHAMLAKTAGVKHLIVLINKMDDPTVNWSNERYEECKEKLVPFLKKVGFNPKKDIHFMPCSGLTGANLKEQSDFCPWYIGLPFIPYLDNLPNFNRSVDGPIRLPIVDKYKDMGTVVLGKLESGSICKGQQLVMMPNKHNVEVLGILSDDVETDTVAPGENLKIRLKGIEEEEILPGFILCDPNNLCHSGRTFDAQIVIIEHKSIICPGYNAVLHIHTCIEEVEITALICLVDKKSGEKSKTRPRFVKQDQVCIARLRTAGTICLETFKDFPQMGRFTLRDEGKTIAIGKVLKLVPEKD
Zinc finger protein Aiolos (Homo sapiens, UniProt Q9UKT9); HiBiT; HEK293; 0.004572 µM, 6 h — remaining protein: 83.8%.
It gave 92% for remaining protein (CRBN/Zinc finger protein Helios; flow cytometry; primary human regulatory T cells; 0.3333 µM, 3 h).
It gave 54.2% and 53.7% for remaining protein (Sal-like protein 4 (SALL4, Homo sapiens, UniProt Q9UJQ4); HiBiT; HEK293; 0.04115 µM).
It gave 91.6% and 93.5% for remaining protein (Casein kinase I isoform alpha (CSNK1A1, Homo sapiens, UniProt P48729); HiBiT; HEK293 HiBiT-CK1α; 123.5 nM).
It gave 87.6% for remaining protein (CRBN/Zinc finger protein Helios; flow cytometry; primary human regulatory T cells; 0.1111 µM, 3 h).
For GSPT1; HiBiT; HEK293; 0.004572 µM: remaining protein read 88.9% and 89.1%.
The remaining protein was 107% and 124% (GSPT1; HiBiT; HEK293; 1.111 µM).
The remaining protein was 95.1% and 110% (GSPT1; HiBiT; HEK293; 3.333 µM).

Set 3
Structure (SMILES): CN1CCN(c2cnc3c(C4CCN(C(=O)c5ccc(OC(F)(F)F)cc5N)CC4)ncnc3c2)CC1
Observed: cell-free assay
Method: competition with immobilised ligand
Concentration: 1 µM
For Testis-specific serine/threonine-protein kinase 1 (TSSK1B, Homo sapiens, UniProt Q9BXA7): remaining binding read 100%.
The remaining binding was 100% (G protein-coupled receptor kinase 4 (GRK4, Homo sapiens, UniProt P32298)).
It gave 90% for remaining binding (Macrophage-stimulating protein receptor (MST1R, Homo sapiens, UniProt Q04912)).
For MAP/microtubule affinity-regulating kinase 3 (MARK3, Homo sapiens, UniProt P27448): remaining binding read 93%.
Serine/threonine-protein kinase 33 (STK33, Homo sapiens, UniProt Q9BYT3) — remaining binding: 99%.
It gave 100% for remaining binding (Phosphorylase b kinase gamma catalytic chain, liver/testis isoform (PHKG2, Homo sapiens, UniProt P15735)).
The remaining binding was 100% (Microtubule-associated serine/threonine-protein kinase 1 (MAST1, Homo sapiens, UniProt Q9Y2H9)).
The remaining binding was 90% (Ribosomal protein S6 kinase beta-1 (RPS6KB1, Homo sapiens, UniProt P23443)).
It gave 100% for remaining binding (Ribosomal protein S6 kinase alpha-5, N-terminal kinase domain (RPS6KA5, Homo sapiens, UniProt O75582)).
The remaining binding was 100% (Mitogen-activated protein kinase kinase kinase kinase 4 (MAP4K4, Homo sapiens, UniProt O95819)).
Misshapen-like kinase 1 (MINK1, Homo sapiens, UniProt Q8N4C8) — remaining binding: 85%.
The remaining binding was 100% (Cyclin-dependent kinase 3 (CDK3, Homo sapiens, UniProt Q00526)).
It gave 100% for remaining binding (5'-AMP-activated protein kinase catalytic subunit alpha-2 (PRKAA2, Homo sapiens, UniProt P54646)).
For Proto-oncogene tyrosine-protein kinase ROS (ROS1, Homo sapiens, UniProt P08922): remaining binding read 100%.
G protein-coupled receptor kinase 3 (GRK3, Homo sapiens, UniProt P35626) — remaining binding: 89%.
For Tyrosine-protein kinase Fyn (FYN, Homo sapiens, UniProt P06241): remaining binding read 100%.
Mitogen-activated protein kinase 15 (MAPK15, Homo sapiens, UniProt Q8TD08) — remaining binding: 100%.
For Calcium/calmodulin-dependent protein kinase kinase 1 (CAMKK1, Homo sapiens, UniProt Q8N5S9): remaining binding read 100%.
Interleukin-1 receptor-associated kinase 1 (IRAK1, Homo sapiens, UniProt P51617) — remaining binding: 100%.
It gave 100% for remaining binding (Serine/threonine-protein kinase ULK3 (ULK3, Homo sapiens, UniProt Q6PHR2)).
It gave 100% for remaining binding (Serine/threonine-protein kinase D2 (PRKD2, Homo sapiens, UniProt Q9BZL6)).
Phosphatidylinositol 4,5-bisphosphate 3-kinase catalytic subunit alpha isoform (PIK3CA, Homo sapiens, UniProt P42336, C420R) — remaining binding: 94%.
For Ephrin type-B receptor 4 (EPHB4, Homo sapiens, UniProt P54760): remaining binding read 100%.
For RAC-gamma serine/threonine-protein kinase (AKT3, Homo sapiens, UniProt Q9Y243): remaining binding read 93%.
For Hormonally up-regulated neu tumor-associated kinase (HUNK, Homo sapiens, UniProt P57058): remaining binding read 95%.

Set 4
SMILES: NC(N)=NC(=O)c1nc(Cl)c(N2CCCCCC2)nc1N
Observed: β-arrestin recruitment
Mode: agonist
Method: PRESTO-Tango
Concentration: 10 µM
Reference: untreated
For Probable G-protein coupled receptor 150 (GPR150, Homo sapiens, UniProt Q8NGU9): “fold over basal” read 1.17.
G-protein coupled receptor 83 (GPR83, Homo sapiens, UniProt Q9NYM4) — “fold over basal”: 0.64.
For G-prodeshotein coupled receptor 4 (GPR4, Homo sapiens, UniProt P46093): “fold over basal” read 1.36.
For Free fatty acid receptor 1 (FFAR1, Homo sapiens, UniProt O14842): “fold over basal” read 1.44 fold.
The “fold over basal” was 0.42 (Mas-related G-protein coupled receptor MRG (MAS1L, Homo sapiens, UniProt P35410)).
C-C chemokine receptor type 8 (CCR8, Homo sapiens, UniProt P51685) — “fold over basal”: 0.87.
It gave 1.1 for “fold over basal” (P2Y purinoceptor 6 (P2RY6, Homo sapiens, UniProt Q15077)).
For Probable G-protein coupled receptor 174 (Homo sapiens, UniProt Q9BXC1): “fold over basal” read 1.23.
For Alpha-1A adrenergic receptor (ADRA1A, Homo sapiens, UniProt P35348): “fold over basal” read 1.07.

Set 5
Target: Calcium/calmodulin-dependent protein kinase type II subunit alpha (CAMK2A, Homo sapiens, UniProt Q9UQM7)
Sequence of UniProt Q9UQM7 (whole entry, looked up): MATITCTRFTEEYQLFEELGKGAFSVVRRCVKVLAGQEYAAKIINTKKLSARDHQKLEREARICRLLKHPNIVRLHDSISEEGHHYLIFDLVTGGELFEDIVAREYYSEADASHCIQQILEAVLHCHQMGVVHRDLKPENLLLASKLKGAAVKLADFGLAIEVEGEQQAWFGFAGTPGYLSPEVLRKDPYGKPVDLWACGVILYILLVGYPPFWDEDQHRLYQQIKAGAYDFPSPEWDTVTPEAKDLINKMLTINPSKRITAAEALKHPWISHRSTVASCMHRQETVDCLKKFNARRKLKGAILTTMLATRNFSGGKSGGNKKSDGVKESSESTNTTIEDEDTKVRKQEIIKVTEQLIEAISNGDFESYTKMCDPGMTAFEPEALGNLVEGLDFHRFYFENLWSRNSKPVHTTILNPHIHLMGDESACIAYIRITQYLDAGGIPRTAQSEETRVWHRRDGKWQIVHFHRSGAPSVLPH
Observed: enzyme activity
Mode: inhibitor
Concentration: 10 µM
For `N[C@@H](CCO)C(=O)O`, the inhibition was -19%.
For `CCC(=O)O[C@]1(C(C)=O)CC[C@H]2[C@@H]3CCC4=CC(=O)C=C[C@]4(C)[C@H]3[C@@H](O)C[C@@]21C`, the inhibition was -2%.
The inhibition of `O=C1/C(=C/c2ccc(O)c(O)c2)COc2cc(O)ccc21` is reported as -33%.
`Oc1c(Cl)cc(Cl)c2cccnc12` has an inhibition of -3%.
`Nc1[nH]c(=O)nc2c1ncn2[C@@H]1O[C@H](CO)[C@@H](O)[C@H]1O` gave an inhibition of -12%.
For `CN(C)CC[C@@H](c1ccc(Cl)cc1)c1ccccn1`, the inhibition was -7%.
For `CC(C(O)c1ccc(O)cc1)N1CCC(Cc2ccccc2)CC1` (stereo not drawn), the inhibition was 5%.
